Experimental data from different studies.
Numbered parts are unrelated; each lists some results of a single study. Positions count from the first letter of the parent shown.

Set 1
Target: Centromere-binding protein 1, full length, N-terminal tag (CBF1, Saccharomyces cerevisiae, UniProt P17106, residues 1-351)
Sequence of UniProt P17106 (whole entry, looked up): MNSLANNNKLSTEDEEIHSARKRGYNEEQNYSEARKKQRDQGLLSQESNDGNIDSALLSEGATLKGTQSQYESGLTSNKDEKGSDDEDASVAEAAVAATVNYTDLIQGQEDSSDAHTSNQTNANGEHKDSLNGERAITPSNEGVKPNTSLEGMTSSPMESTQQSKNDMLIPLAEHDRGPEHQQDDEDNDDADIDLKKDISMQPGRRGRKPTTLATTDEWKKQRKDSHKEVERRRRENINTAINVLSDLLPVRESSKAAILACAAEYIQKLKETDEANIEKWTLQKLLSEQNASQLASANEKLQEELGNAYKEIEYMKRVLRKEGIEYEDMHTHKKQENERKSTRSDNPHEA
Method: protein-binding microarray
Molecule type: double-stranded DNA, one strand shown
Sample: in vitro
Tested at: 0.8 µM
Notes: whole 60-bp probe, no competitor
Reading: higher = stronger binding
All sequences stand within: … GTCTTGATTCGCTTGACGCTGCTG
| Oligonucleotide | fluorescence intensity [a.u.] |
| --- | --- |
| GAAGACCTAAACAACCACACGGGGTTAAGCAAGTAG | 545 |
| TGTACGAAGCTATGAGGTGTGATTATAGTAGTTAGG | 562 |
| CTATTTTTGCCCTTTCGGGTGATCAAAGTCGTGTTC | 588 |
| GAAGGAACGGCAAATCACGAAAATTTTCTGTCATAG | 514 |
| TGTACGAAGCTATACATCGTGGTTATAGTAGTTAGG | 510 |

Set 2
Target: CCNF, cyclin fold, Cln2 fusion (human)
Method: yeast growth competition, sequencing
Sample: yeast
Notes: strong parent motif
Relative to: not given
Reading: higher = stronger binding
Parent: WEE1 docking peptide (human); HKTFRKLRLFDTP; partner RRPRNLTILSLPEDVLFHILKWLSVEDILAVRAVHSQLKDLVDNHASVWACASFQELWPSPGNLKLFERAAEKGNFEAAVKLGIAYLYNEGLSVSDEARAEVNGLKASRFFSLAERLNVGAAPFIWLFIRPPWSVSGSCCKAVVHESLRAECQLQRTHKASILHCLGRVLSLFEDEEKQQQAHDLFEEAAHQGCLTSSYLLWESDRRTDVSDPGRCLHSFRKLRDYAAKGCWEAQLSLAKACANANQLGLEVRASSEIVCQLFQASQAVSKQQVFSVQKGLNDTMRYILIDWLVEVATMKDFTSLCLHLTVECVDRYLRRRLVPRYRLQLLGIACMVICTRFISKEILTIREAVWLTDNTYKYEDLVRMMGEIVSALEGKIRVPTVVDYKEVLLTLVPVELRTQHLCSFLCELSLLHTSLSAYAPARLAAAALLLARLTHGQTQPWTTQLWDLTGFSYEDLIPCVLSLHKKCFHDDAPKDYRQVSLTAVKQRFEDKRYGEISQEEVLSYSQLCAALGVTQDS
| Variant | normalised enrichment score |
| --- | --- |
| P13R | 2.33 |
| F10H | 1.24 |
| R8Y | 4.76 |
| P13H | 1.36 |

Set 3
Target: Prothrombin, mature alpha-thrombin (F2, Homo sapiens, UniProt P00734)
Method: aptamer microarray, sandwich
Molecule type: DNA with 2'F-ANA
Sample: in vitro
Tested at: 200 nM
Notes: whole 15-mer aptamer, many near background
With: Cy3 exosite-II aptamer, 400 nM
Reading: higher = stronger binding
Oligonucleotide: GGTTGGTGTGGTTGG
| Modification | mean fluorescence intensity |
| --- | --- |
| 2'F-ANA at 1 4 6 8 12 13 15 | 217 a.u. |
| 2'F-ANA at 1 2 5 7 11 15 | 54 a.u. |
| 2'F-ANA at 4 6 7 9 12 13 | 293 a.u. |
| 2'F-ANA at 2 3 4 5 7 8 10 12 13 14 | 47.3 a.u. |
| 2'F-ANA at 6 8 10 13 14 15 | 89.7 a.u. |

Mixed results
| Molecule | target | assay | system | conditions | scale | measurement | value |
| --- | --- | --- | --- | --- | --- | --- | --- |
| PhoQ, residues 284 288 289 292 302 303 NLCILV | PhoP, residues 12 14 15 18 19 LHTVM (Escherichia coli, UniProt P23836) | Sort-seq, measured: YFP reporter | E. coli | PhoQ-PhoP variant library, with: 10 µM Mg2+ | relative to: high Mg2+ state, higher = stronger signaling | fold induction | 15.6 |

Repeated from above (set 3):
| Modification | mean fluorescence intensity |
| --- | --- |
| 2'F-ANA at 1 4 6 8 12 13 15 | 217 a.u. |
